Experimental data collected from several papers.
Numbered parts are unrelated; each lists some results of a single study. Positions count from the first letter of the parent shown.
UniProt Q96BR1, sequence (whole entry, looked up): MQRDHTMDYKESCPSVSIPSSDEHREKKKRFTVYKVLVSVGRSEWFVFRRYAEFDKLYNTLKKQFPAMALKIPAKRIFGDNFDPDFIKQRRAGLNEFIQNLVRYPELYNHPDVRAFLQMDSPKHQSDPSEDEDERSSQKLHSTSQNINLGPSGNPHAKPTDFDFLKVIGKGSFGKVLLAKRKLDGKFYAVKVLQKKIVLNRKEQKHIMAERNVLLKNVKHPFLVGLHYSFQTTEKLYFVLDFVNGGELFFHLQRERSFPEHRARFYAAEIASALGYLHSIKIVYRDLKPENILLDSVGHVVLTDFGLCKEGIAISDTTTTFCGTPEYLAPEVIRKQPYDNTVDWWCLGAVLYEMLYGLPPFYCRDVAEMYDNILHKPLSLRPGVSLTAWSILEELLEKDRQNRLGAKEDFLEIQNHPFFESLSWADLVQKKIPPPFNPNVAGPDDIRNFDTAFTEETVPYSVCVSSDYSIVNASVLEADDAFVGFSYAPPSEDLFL

Block 1
Target: ABI1, truncated, D143A, DHFR fusion (Arabidopsis thaliana)
Method: DHFR PCA, deep sequencing
Sample: yeast
Notes: methotrexate growth selection, single substitutions
Together with: (+)-ABA 2500 µM
Reference: wild-type fitted maximum
Reading: higher = stronger binding
Parent: PYL1, truncated, DHFR fusion (Arabidopsis thaliana); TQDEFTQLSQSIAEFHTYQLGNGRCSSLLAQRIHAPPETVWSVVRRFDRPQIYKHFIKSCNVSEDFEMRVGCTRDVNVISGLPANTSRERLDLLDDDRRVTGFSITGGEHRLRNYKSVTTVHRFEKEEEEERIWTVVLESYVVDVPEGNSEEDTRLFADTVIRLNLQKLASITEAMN
Variant | relative binding score [%]
L82C | 93.4
I172C | 92.7
D96I | 85.2
Q7Y | 108
R69M | 92.1
I105N | 89.4
W41L | -2.78
S171A | 96.8

Block 2
Target: TAR DNA-binding protein 43, full length, His tag (TARDBP, Homo sapiens, UniProt Q13148, residues 1-414)
Method: RNA Bind-n-Seq
Form: RNA
Sample: in vitro
Tested at: 20 nM
Notes: 6-mer, flanks averaged, single round
Together with: 150 mM LiCl
Reference: input library
Reading: higher = stronger binding
Sequence | 6-mer enrichment (R)
CUGAUC | 0.841
AAACGC | 0.811
UGUAUU | 1.17
GUAGGU | 1.13
AGAGUG | 1.28
GCUAAG | 0.9
GAUCUG | 0.89
UCACCG | 0.853

Block 3
Target: HLF, bZIP domain (human)
Method: DHFR protein complementation
Sample: yeast
Notes: single substitutions, most at no-binding floor
Reference: wild-type JUN-FOS pair
Reading: higher = stronger binding
Parent: JUN, bZIP domain (human); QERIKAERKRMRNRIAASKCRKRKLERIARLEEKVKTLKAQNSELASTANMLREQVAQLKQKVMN; partner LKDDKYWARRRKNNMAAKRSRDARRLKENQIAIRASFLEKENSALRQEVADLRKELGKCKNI
Variant | binding fitness [natural log]
E32P | -1.45
Q55M | -1.37
T48I | -1.44
A57L | -1.47
A49S | -1.41
T37V | -1.48
L31Q | -1.46
K34W | -1.11

Single results of other studies
SMILES | target | effect on | mode | tested at | reference | endpoint | value
Nc1ccc2ncnc(NCCc3ccc(Oc4ccccc4)cc3)c2c1 | Serine/threonine-protein kinase Sgk3 (SGK3, Homo sapiens, UniProt Q96BR1) | enzyme activity | inhibitor | 0.5 µM | control | remaining activity | 106%

Excerpt of the above (block 3):
Variant | binding fitness [natural log]
E32P | -1.45
Q55M | -1.37
T48I | -1.44
A57L | -1.47
